Experimental data collected from several papers.
Lines come from different studies, so protocols differ. Several values in a cell are separate wells, animals, samples, runs or records. ± gives the spread as reported.
EPHB1: Ephrin type-B receptor 1 (EPHB1, Homo sapiens, UniProt P54762)
UniProt P54762, sequence (whole entry, looked up): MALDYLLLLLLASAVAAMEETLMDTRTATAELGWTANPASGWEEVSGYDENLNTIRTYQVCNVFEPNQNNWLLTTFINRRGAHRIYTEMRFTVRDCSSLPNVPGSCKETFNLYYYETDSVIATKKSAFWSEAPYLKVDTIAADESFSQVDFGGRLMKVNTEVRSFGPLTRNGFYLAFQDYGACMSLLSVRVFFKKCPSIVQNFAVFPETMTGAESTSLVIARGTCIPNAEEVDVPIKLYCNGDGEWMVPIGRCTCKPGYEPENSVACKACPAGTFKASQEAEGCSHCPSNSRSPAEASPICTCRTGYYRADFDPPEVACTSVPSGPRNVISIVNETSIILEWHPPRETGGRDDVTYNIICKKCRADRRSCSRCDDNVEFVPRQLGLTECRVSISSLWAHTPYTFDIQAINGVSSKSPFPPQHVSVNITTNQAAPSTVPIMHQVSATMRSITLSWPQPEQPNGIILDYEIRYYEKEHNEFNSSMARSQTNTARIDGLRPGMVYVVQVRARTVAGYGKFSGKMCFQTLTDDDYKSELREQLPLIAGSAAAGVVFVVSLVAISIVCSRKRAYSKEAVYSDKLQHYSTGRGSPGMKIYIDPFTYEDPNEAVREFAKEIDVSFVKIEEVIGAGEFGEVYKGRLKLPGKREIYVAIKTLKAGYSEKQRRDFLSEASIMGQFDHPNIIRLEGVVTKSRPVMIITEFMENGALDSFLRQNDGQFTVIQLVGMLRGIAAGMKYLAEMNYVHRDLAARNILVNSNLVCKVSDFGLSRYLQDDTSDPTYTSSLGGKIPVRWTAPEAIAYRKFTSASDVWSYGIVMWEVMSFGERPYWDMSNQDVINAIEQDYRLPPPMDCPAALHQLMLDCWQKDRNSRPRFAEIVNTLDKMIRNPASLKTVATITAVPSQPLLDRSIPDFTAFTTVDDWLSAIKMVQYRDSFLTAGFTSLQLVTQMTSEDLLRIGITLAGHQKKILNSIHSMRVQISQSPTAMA
Chymotrypsinogen A: Chymotrypsinogen A (Bos taurus, UniProt P00766)
OPRK1: Kappa-type opioid receptor (OPRK1, Homo sapiens, UniProt P41145)
UniProt Q9EP89, sequence (whole entry, looked up): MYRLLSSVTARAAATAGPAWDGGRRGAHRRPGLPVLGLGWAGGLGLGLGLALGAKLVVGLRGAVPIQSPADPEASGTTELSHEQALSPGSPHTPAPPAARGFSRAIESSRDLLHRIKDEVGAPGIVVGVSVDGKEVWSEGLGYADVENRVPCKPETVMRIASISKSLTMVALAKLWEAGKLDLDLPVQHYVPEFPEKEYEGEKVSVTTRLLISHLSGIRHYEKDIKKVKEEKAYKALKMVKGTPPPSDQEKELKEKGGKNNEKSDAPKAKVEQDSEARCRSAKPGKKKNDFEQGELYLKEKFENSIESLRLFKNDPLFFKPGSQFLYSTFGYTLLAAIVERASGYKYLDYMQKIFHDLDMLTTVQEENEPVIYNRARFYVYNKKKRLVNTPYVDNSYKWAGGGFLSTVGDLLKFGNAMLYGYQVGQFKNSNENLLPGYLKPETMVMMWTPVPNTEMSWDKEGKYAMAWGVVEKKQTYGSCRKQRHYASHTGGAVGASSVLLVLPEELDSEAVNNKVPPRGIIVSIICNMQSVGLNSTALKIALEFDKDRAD
UniProt Q8IW41, sequence (whole entry, looked up): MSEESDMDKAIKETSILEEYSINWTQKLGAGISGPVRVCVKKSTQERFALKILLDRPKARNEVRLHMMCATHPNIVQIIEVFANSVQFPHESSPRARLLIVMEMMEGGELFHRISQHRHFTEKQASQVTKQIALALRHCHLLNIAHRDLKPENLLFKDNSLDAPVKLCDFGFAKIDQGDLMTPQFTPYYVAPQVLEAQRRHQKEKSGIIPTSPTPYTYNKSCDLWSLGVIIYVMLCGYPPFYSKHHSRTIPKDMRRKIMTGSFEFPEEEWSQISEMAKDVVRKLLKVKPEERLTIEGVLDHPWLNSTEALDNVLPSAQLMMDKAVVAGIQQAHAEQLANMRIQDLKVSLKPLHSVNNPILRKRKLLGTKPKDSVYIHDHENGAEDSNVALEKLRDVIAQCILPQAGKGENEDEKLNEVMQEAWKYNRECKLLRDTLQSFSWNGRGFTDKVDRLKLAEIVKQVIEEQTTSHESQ
UniProt Q9Y2J8, sequence (whole entry, looked up): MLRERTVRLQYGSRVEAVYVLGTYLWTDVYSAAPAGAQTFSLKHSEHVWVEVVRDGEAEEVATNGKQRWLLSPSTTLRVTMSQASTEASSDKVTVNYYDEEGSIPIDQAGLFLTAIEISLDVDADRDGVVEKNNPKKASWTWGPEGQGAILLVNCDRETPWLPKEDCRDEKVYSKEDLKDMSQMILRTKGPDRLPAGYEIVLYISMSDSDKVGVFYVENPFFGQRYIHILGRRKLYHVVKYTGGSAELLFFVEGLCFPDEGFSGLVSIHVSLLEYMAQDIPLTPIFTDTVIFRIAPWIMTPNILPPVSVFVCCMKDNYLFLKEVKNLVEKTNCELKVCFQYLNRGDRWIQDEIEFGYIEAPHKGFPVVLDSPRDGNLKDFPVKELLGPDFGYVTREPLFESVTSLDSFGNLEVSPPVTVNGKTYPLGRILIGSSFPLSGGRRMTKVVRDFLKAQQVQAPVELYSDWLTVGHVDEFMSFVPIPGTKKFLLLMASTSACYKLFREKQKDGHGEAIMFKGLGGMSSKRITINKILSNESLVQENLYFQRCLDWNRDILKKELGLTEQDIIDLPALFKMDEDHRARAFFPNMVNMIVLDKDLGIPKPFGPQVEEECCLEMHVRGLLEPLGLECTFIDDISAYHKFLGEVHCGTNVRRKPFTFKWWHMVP
UniProt P41145, sequence (whole entry, looked up): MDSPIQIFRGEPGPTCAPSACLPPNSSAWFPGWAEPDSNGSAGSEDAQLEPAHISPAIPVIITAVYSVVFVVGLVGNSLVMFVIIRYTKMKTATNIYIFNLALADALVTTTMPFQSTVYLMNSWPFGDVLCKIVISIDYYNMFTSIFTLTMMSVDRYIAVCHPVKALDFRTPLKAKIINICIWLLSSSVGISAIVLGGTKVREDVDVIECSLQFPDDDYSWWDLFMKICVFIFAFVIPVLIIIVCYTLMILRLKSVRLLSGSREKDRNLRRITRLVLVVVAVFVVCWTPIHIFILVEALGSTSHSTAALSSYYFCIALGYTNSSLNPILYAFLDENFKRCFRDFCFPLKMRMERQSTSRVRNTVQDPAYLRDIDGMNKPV
UniProt Q9UH17, sequence (whole entry, looked up): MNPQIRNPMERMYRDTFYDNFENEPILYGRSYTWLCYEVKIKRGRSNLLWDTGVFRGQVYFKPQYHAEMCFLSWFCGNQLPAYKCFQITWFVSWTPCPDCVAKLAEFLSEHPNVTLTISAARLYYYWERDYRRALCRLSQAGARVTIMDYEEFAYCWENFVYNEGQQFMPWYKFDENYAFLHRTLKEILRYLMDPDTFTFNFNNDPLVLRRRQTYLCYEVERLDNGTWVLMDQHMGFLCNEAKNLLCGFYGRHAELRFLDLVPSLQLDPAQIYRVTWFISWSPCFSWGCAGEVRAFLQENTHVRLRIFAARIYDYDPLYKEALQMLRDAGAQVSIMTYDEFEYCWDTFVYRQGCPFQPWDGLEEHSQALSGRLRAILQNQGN
UniProt O42275, sequence (whole entry, looked up): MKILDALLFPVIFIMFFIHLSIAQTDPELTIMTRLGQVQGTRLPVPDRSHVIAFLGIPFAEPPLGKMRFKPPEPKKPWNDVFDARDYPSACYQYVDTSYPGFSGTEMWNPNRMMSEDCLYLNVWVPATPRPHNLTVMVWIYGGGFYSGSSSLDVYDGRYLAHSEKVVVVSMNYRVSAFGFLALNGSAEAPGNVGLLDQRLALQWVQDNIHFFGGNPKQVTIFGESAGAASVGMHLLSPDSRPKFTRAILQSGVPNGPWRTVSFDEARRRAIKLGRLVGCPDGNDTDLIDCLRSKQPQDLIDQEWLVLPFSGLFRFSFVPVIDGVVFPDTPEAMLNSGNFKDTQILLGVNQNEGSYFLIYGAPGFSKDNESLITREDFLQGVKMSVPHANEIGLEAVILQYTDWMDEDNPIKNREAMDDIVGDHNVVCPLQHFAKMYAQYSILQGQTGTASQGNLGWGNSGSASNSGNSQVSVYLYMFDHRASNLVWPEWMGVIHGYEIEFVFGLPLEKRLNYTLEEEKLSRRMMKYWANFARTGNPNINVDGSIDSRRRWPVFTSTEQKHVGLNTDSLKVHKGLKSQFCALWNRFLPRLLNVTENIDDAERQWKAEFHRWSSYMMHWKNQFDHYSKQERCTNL
UniProt P0A988, sequence (whole entry, unmodified, looked up): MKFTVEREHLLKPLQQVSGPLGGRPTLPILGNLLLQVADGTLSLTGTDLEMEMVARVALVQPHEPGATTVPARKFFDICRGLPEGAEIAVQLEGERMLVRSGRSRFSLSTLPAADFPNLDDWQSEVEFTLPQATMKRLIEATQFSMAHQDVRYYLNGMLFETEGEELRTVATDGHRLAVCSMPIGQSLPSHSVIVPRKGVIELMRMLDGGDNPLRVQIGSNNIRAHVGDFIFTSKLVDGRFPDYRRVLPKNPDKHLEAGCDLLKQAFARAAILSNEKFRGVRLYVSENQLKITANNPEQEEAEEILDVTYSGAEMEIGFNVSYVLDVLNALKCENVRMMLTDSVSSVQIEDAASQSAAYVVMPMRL

SMILES	target	test	test system	setting	how to read	quantity	result
COc1ccc(C(=O)CCl)c2c1C(=O)CO2	Fosb/Jund, ΔFosB bZIP domain (Mus musculus, UniProt P13346+P15066)	intact mass LC-MS, item: JUND adduct, HCl lost	–	concentration not given	baseline: total JUND species	relative abundance	24.5%
O=C1NC(=O)c2c1c1cc(F)c[n+]3c1c1c2c2cc(O)ccc2[n]1[Ru-4]312([N]=C=S)[S+]3CC[S+]1CC[S+]2CC3 (stereo not shown)	EPHB1	enzyme activity	–	100 nM, human enzyme, added: 10 µM ATP	baseline: untreated	remaining activity	117%
CCn1nc(Cl)c2c1-c1cnc(N)c(c1)O[C@H](C)c1cc(F)ccc1-c1nn(C)cc1C2	EPHB1	kinase activity, inhibitor	–	–	baseline: IC50 EPHB1 over IC50 ALK	selectivity ratio	171 fold
CCOC(=O)[C@@H]1Cc2c(cc([N+](=O)[O-])cc2[N+](=O)[O-])[C@H](O)[C@]12C(=O)Nc1ccc(Br)cc12	Proto-oncogene tyrosine-protein kinase Src (SRC, Homo sapiens, UniProt P12931)	binding, competition with immobilised ligand	–	0.1 µM	–	remaining binding	88%
O=C(O)C(/C=C/c1ccc(Cl)cc1)=N\Nc1nc(-c2ccc([N+](=O)[O-])cc2)cs1	Acetylcholinesterase (ache, Electrophorus electricus, UniProt O42275)	Ellman	–	–	baseline: IC50 BChE over IC50 AChE	selectivity index	1.83
CCN(N=Cc1cnc2ccc(Br)cn12)S(=O)(=O)c1cc([N+](=O)[O-])ccc1C	Phosphatidylinositol 4,5-bisphosphate 3-kinase catalytic subunit alpha isoform (PIK3CA, Homo sapiens, UniProt P42336, I771Y)	luminescence	–	–	baseline: mutant over wild type	IC50 fold change	10
COCC1CCCCN1C(=O)n1cc(C(O)(c2ccccc2)c2ccccc2)nn1 (stereo not shown)	Acylamino-acid-releasing enzyme (Apeh, Mus musculus, UniProt Q8R146)	probe labelling, inhibitor, competitive ABPP-SILAC	mouse T cells	concentration not given, 4 h, protein level	baseline: treated over DMSO cells, lower = stronger inhibition	SILAC activity ratio	1.42
C=CC(=O)NC[C@H](NC(=O)[C@H](CC1CCCCC1)NC(=O)[C@H](CCC(N)=O)NC(C)=O)C(=O)N[C@@H](CC(C)C)C(=O)N[C@@H](Cc1ccccc1)C(=O)O	Beta sliding clamp (Escherichia coli, UniProt P0A988, H175G)	isothermal titration calorimetry	–	25 °C	–	ΔH	-11.6 kcal/mol
OB(O)c1cnn(-c2cc(Cl)ncn2)c1	Chymotrypsinogen A	pNA substrate hydrolysis	–	–	baseline: Ki protease over Ki AmpC	selectivity ratio	9900
O=C(Cc1ccc(Cl)c(Cl)c1)N1CCN(Cc2ccccc2)[C@@H]2COC[C@H](N3CCCC3)[C@H]21 (single isomer, unassigned)	OPRK1	β-arrestin-2 recruitment, agonist	U2OS	1.5 h	baseline: U-69593 maximal response	Emax	65%
CC(C)C[C@H](NC(=O)[C@H]1O[C@@H]1C(=O)O)C(=O)NCCCCN=C(N)N	Dipeptidyl peptidase 1 (CTSC, Homo sapiens, UniProt P53634)	–	–	–	–	Hill slope	-1.27
O=C(N1CCCCC1)n1ccnn1	Serine beta-lactamase-like protein LACTB, mitochondrial (Lactb, Mus musculus, UniProt Q9EP89)	probe labelling, inhibitor, competitive ABPP-SILAC, item: Lactb	mouse T cells	concentration not given, 4 h, in situ, single peptide	baseline: treated over DMSO, lower = more inhibition	SILAC ratio	1.43 and 2.02 and 1.34 and 1.51 and 1.38
Fc1cc2nc(NCCCNCc3cc(Cl)cc(Cl)c3)[nH]c2cc1F	Methionine--tRNA ligase, mitochondrial (MARS2, Homo sapiens, UniProt Q96GW9)	enzyme activity	–	–	baseline: human IC50 over T. brucei IC50	selectivity ratio	> 704
CN(C)[C@H]1C[C@@]23CC[C@@]4(O2)C(=CC[C@]2(C)[C@@H](c5ccc6ccncc6c5)CC[C@H]24)C=C3[C@@H](O)[C@@H]1O	Serine/threonine-protein kinase ATR (ATR, Homo sapiens, UniProt Q13535)	ATP probe labelling, inhibitor, KiNativ profiling	–	1 µM	–	inhibition	-3.9%
COc1ccccc1-c1n[nH]c2nc(N[C@H]3CC[C@H](NS(=O)(=O)CC(C)C)CC3)ncc12	BPI fold-containing family A member 1 (BPIFA1, Homo sapiens, UniProt Q9NP55)	competitor, bead pull-down competition, item: SPLUNC1	Leishmania donovani extract	10 µM	baseline: vehicle	relative abundance	27.1
N=C(N)c1ccc(-c2ccc(-c3ccc(C(=N)N)cc3)[se]2)cc1	Protein arginine N-methyltransferase 5 (PRMT5, Homo sapiens, UniProt O14744)	enzyme activity, inhibitor, radiometric	–	20 µM	–	remaining activity	69%
O=C(Cc1ccc(F)c(Cl)c1)N1CCN[C@@H]2COC[C@H](N3CCCC3)[C@H]21 (relative stereo)	OPRK1	–	–	concentration not given	–	loss of binding affinity	4 to 8 fold
C=CC(=O)Nc1cc(-c2ccc(C(=O)N3CCCC(O)(CC)C3)cc2)ccc1F (stereo not shown)	DNA dC->dU-editing enzyme APOBEC-3B, C-terminal domain (Homo sapiens, UniProt Q9UH17)	covalent adduct, intact protein MS	–	1 h, 1-fold, 25 µM	–	unmodified protein	100%
C[C@@H](Cc1ccsc1)NC(=O)NC[C@H](Cc1ccc(O)cc1)N(C)C	Mu-type opioid receptor (OPRM1, Homo sapiens, UniProt P35372)	agonist	HEK-293T	–	–	Emax	94 ± 3%
COc1ccccc1/N=N/c1cccc([B-](F)(F)F)c1.[K+]	Chymotrypsinogen A	enzyme activity, inhibitor	–	added: Suc-AAPF-AMC	baseline: Ki cis over Ki trans	switching factor	2.3 ± 0.1
C/C(=N\OCCCN1CCCCC1)c1ccc(C(F)(F)F)cc1	Glucocorticoid receptor (NR3C1, Homo sapiens, UniProt P04150)	reporter gene, agonist, luciferase reporter	–	10 µM	–	activation	-0.63%
[CH3][Ti+2][O]C(=O)c1ccc([S][Au][PH](c2ccccc2)(c2ccccc2)c2ccccc2)cc1.c1cc[cH-]c1.c1cc[cH-]c1	MAP kinase-activated protein kinase 5 (MAPKAPK5, Homo sapiens, UniProt Q8IW41)	inhibitor, radiometric HotSpot	–	1 µM, added: 10 µM ATP	baseline: DMSO vehicle	remaining kinase activity	96.2% and 91.7%
CC(C)[C@H]1NC(=O)C[C@H]2/C=C/CCSSC[C@@H](NC1=O)C(=O)N[C@H](Cc1cccc3ccccc13)C(=O)NCC(=O)O2	5'-AMP-activated protein kinase catalytic subunit alpha-2, with beta1 gamma1 (PRKAA2, Homo sapiens, UniProt P54646)	–	–	10 µM	–	inhibition	-0.323%
CC(C)C[C@H](NC(=O)[C@H](CC(=O)O)NC(=O)[C@@H](NC(=O)[C@H](CCC(=O)O)NC(=O)[C@H](CCCCN)NC(=O)[C@H](Cc1ccc(O)cc1)NC(=O)[C@H](CCCCN)NC(=O)[C@H](Cc1c[nH]cn1)NC(=O)CNC(=O)CN)[C@@H](C)O)C(N)=O	HCV IRES RNA	RNA cleavage	hepatitis C virus	–	–	kcat/Km	1170 M⁻¹ s⁻¹
N[C@H](C(=O)N1CCCC1)C1CCN(c2nccc3c(-c4ncc(Cl)cc4Cl)cccc23)CC1	Protein-arginine deiminase type-2 (PADI2, Homo sapiens, UniProt Q9Y2J8)	enzyme activity	–	0.6144 µM, added: Ca2+ 0.25 mM	–	kcat	0.115 s⁻¹ and 0.101 s⁻¹
O=C(NC1CCN(c2ncnc3[nH]cnc23)CC1)c1cccc(NS(=O)(=O)c2ccc(C(F)(F)F)cc2)c1	Genome polyprotein, NS5 methyltransferase domain (Zika virus, UniProt Q32ZE1)	NS5 enzyme activity, inhibitor	–	25 µM	–	inhibition	-4.08%
CS(C)(=O)=Nc1ccc(-c2ccc(-c3nc4cc(O[C@@H]5CO[C@H]6[C@@H]5OC[C@H]6O)[nH]c4cc3F)cc2)cc1	Calcium/calmodulin-dependent protein kinase type II subunit gamma (CAMK2G, Homo sapiens, UniProt Q13555)	enzyme activity, inhibitor	–	10 µM	–	inhibition	11%
C#CCCCCOc1ccc2c(c1)CCCN2C(=O)CCl	Striatin-interacting protein 1 (STRIP1, Homo sapiens, UniProt Q5VSL9)	MS-ABPP alkyne probe	Ramos cell lysate	–	baseline: high over low probe	cysteine reactivity ratio	1.99

Some of these lines once more:
SMILES	target	test	test system	setting	how to read	quantity	result
O=C(N1CCCCC1)n1ccnn1	Serine beta-lactamase-like protein LACTB, mitochondrial (Lactb, Mus musculus, UniProt Q9EP89)	probe labelling, inhibitor, competitive ABPP-SILAC, item: Lactb	mouse T cells	concentration not given, 4 h, in situ, single peptide	baseline: treated over DMSO, lower = more inhibition	SILAC ratio	1.43 and 2.02 and 1.34 and 1.51 and 1.38
Fc1cc2nc(NCCCNCc3cc(Cl)cc(Cl)c3)[nH]c2cc1F	Methionine--tRNA ligase, mitochondrial (MARS2, Homo sapiens, UniProt Q96GW9)	enzyme activity	–	–	baseline: human IC50 over T. brucei IC50	selectivity ratio	> 704
CN(C)[C@H]1C[C@@]23CC[C@@]4(O2)C(=CC[C@]2(C)[C@@H](c5ccc6ccncc6c5)CC[C@H]24)C=C3[C@@H](O)[C@@H]1O	Serine/threonine-protein kinase ATR (ATR, Homo sapiens, UniProt Q13535)	ATP probe labelling, inhibitor, KiNativ profiling	–	1 µM	–	inhibition	-3.9%
